Measured values pooled from the literature.
Every numbered part comes from another study and shows a few of its results, in no order. Positions count from the first letter of the parent shown.

Set 1 — target: CCNF, cyclin fold, Cln2 fusion (human); method: yeast growth competition, sequencing; medium: yeast; setting: strong parent motif; relative to: not given; direction: higher = stronger binding; endpoint: normalised enrichment score
Parent: REPIN1 docking peptide (human); QSFRGWVALVLHL
Variant = QSFRGWVALALHL [V10A]; result = 1.98
Variant = QSFRGWVALVLHA [L13A]; result = 2.44
Variant = QSFAGWVALVLHL [R4A]; result = 1.37
Variant = QAFRGWVALVLHL [S2A]; result = 1.88
Variant = QSFRGAVALVLHL [W6A]; result = 0.919
Variant = QSFRGWVAAVLHL [L9A]; result = 1.72

Set 2 — method: aptamer microarray, sandwich; form: DNA with 2'F-ANA; medium: in vitro; concentration: 200 nM; with: Cy3 exosite-II aptamer, 400 nM; direction: higher = stronger binding; endpoint: mean fluorescence intensity; oligonucleotide: GGTTGGTGTGGTTGG
Target: Prothrombin, mature alpha-thrombin (F2, Homo sapiens, UniProt P00734)
Setting: whole 15-mer aptamer, many near background
Modification = 2'F-ANA at 2 3 5 6 7 8 9 13 15; result = 65.8 a.u.
Modification = 2'F-ANA at 1 3 7 9 12 13 14; result = 103 a.u.
Modification = 2'F-ANA at 1 3 5 6 7 9 10 12 13; result = 48.2 a.u.
Modification = 2'F-ANA at 2 6 10 12 15; result = 178 a.u.
Modification = 2'F-ANA at 1 4 7 9 10 13 14 15; result = 44.9 a.u.
Modification = 2'F-ANA at 1 4 8 9 10 11 12 13 14; result = 57.1 a.u.
Modification = 2'F-ANA at 4 5 6 7 9 10 12 14 15; result = 51.2 a.u.
Modification = 2'F-ANA at 3 5 6 8 9 10 12 14 15; result = 70.1 a.u.
Modification = 2'F-ANA at 2 3 4 8 10 11 13 15; result = 195 a.u.
Modification = 2'F-ANA at 1 2 3 8 11 14; result = 108 a.u.
Modification = 2'F-ANA at 1 2 3 12 13 15; result = 393 a.u.
Modification = 2'F-ANA at 2 4 5 7 8 11 12 14; result = 69.4 a.u.

Set 3 — method: DHFR PCA, deep sequencing; medium: yeast; with: (+)-ABA 1.4 µM; relative to: wild-type fitted maximum; direction: higher = stronger binding; endpoint: relative binding score
Target: ABI1, truncated, D143A, DHFR fusion (Arabidopsis thaliana)
Setting: methotrexate growth selection, single substitutions
Parent: PYL1, truncated, DHFR fusion (Arabidopsis thaliana); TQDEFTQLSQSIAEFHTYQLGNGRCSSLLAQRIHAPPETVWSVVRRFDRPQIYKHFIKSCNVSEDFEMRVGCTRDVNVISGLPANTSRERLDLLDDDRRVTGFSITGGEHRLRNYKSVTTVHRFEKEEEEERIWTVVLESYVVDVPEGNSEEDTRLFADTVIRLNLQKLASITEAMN
Variant = E139I; result = 5.29%
Variant = L156H; result = 25.5%
Variant = V70F; result = -3.27%
Variant = C25D; result = -9.49%
Variant = D96E; result = 60.5%
Variant = D95M; result = 3.17%

Single results of other studies
Substance = PhoQ, residues 284 288 289 292 302 303 TNASYF; target = PhoP, residues 12 14 15 18 19 LHTVM (Escherichia coli, UniProt P23836); test = Sort-seq, refers to: YFP reporter; test system = E. coli; conditions = PhoQ-PhoP variant library, with: 10 µM Mg2+; how to read = relative to: high Mg2+ state, higher = stronger signaling; endpoint = fold induction; result = 12.6

For quick reference, copied from above (set 1):
Variant = QSFAGWVALVLHL [R4A]; result = 1.37
Variant = QAFRGWVALVLHL [S2A]; result = 1.88
Variant = QSFRGAVALVLHL [W6A]; result = 0.919
Variant = QSFRGWVAAVLHL [L9A]; result = 1.72
